Measured values collected from several papers.
Protocols differ between the studies behind these lines. ± gives the spread as reported.

`CC(=O)N[C@@H](CCCCN)C(=O)N[C@@H](CCCCN)C(=O)N[C@@H](CC(C)C)C(=O)N[C@@H](C)C(=O)N[C@@H](CCCCN)C(=O)N[C@@H](CC(C)C)C(=O)N[C@@H](CC(C)C)C(=O)N[C@@H](CCCCN)C(=O)N[C@@H](CCCCN)C(=O)N1CCC[C@H]1C(=O)N[C@@H](CC(C)C)C(=O)N[C@@H](CCCCN)C(=O)N[C@@H](CC(C)C)C(=O)N[C@@H](CC(C)C)C(=O)N[C@@H](CCCCN)C(N)=O` gave an MHC10 of over 160 µM (human red blood cells; haemolysis; 6 h, 37 °C, 5% haematocrit in PBS).
`CC(C)C[C@H](NC(=O)[C@H](CCCCN)NC(=O)[C@H](CC(C)C)NC(=O)[C@H](CC(C)C)NC(=O)[C@H](CCCCN)NC(=O)CNC(=O)[C@H](CC(C)C)NC(=O)CNC(=O)[C@H](CCCCN)NC(=O)[C@H](CC(C)C)NC(=O)[C@H](CC(C)C)NC(=O)[C@H](CCCCN)NC(=O)[C@@H](N)CC(C)C)C(=O)O` — result for “lowest hemolytic concentration”: over 256 µg/mL (human red blood cells; 1 h, 37 °C, 10% hemolysis).
Under “early apoptotic cells”, `CC(C)(c1ccc(O)cc1)c1ccc(O)cc1` is recorded as 4.33 ± 2.48% (HepG2 spheroids, dissociated; annexin V-FITC/PI flow cytometry; 10 µM, 24 h).
`COc1cc2c(Oc3ccc4[nH]c(C)cc4c3F)ccnc2cc1OCC1(N)CC1` — result for “mouth ulcer incidence”: 0% (paediatric refractory sarcoma patients; 12 mg).
`O=c1ccc2ccccc2o1` gave a chance response of 0.01% (NHEK; cell cycle arrest; concentration not given, 24 h).
`Cc1ccc(OCCc2ccc(Br)cc2)c(C(N)=O)c1` has a selectivity ratio of about 3 (HepG2; 3 (unit not given); relative to: CC50 glucose over CC50 galactose).
`Nc1ncnc2c1ncn2[C@@H]1O[C@@H]2COP(=O)(O)O[C@H]3[C@@H](O)[C@H](n4cnc5c(N)ncnc54)O[C@@H]3COP(=O)(O)O[C@H]2[C@H]1O` gave a viability of 90.2% (HFF-1; 10 µg/mL).
The CC50 of `c1ccc2c(c1)Sc1ccccc1N2CC1CN2CCC1CC2` (stereo not drawn) is reported as 0.00776 mM (African green monkey cells; 5 days).
With `Nc1nc2c(ncn2[C@@H]2O[C@@H]3COP(=O)(O)O[C@H]4[C@@H](O)[C@H](n5cnc6c(=O)[nH]c(N)nc65)O[C@@H]4COP(=O)(O)O[C@H]3[C@H]2O)c(=O)[nH]1` the viability was 82.8% (HFF-1; 100 µg/mL).
`N#C[C@@]1(n2ccc(N)nc2=O)O[C@H](CO)[C@@H](O)[C@H]1O`: “micronucleus test result” “negative” (CHO; in vitro micronucleus).
With `Cc1nc2ccccn2c(=O)c1CCN1CCC(=C(c2ccc(F)cc2)c2ccc(F)cc2)CC1` the CC50 was 0.0102 mM (African green monkey cells; 5 days).
Under “early apoptotic cells”, `Cc1cc(C(C)(C)c2ccc(O)c(C)c2)ccc1O` is recorded as 5.04 ± 3.87% (HepG2 spheroids, dissociated; annexin V-FITC/PI flow cytometry; 0.10 µM, 96 h).
The CC50 of `OCCN1CCN(CCCN2c3ccccc3Sc3ccc(C(F)(F)F)cc32)CC1` is reported as 0.00776 mM (African green monkey cells; 5 days).
`CC[C@H](C)[C@H](N)C(=O)N[C@@H](CCCNC(=N)N)C(=O)N[C@@H](CCCNC(=N)N)C(=O)N[C@@H](C)C(=O)N[C@H](C(=O)N[C@@H](CC(N)=O)C(=O)N[C@@H](CCCCN)C(=O)N[C@@H](Cc1ccc(O)cc1)C(=O)N1CCC[C@H]1C(=O)N1CCC[C@H]1C(=O)N[C@H](C(=O)N[C@@H](CC(N)=O)C(=O)N[C@@H](CC(C)C)C(=O)N[C@@H](CCCCN)C(=O)N[C@H](C(=O)N[C@@H](CCCCN)C(=O)N[C@@H](CS)C(=O)N[C@@H](CC(N)=O)C(=O)N[C@@H](CCCNC(=N)N)C(=O)N[C@@H](CC(C)C)C(=O)N[C@@H](CC(N)=O)C(=O)N[C@@H](CO)C(=O)N[C@H](C(=O)N[C@@H](CC(=O)O)C(=O)N1CCC[C@H]1C(=O)N[C@@H](CCCCN)C(=O)N[C@@H](CCC(N)=O)C(=O)N1CCC[C@H]1C(=O)N1CCC[C@H]1C(=O)N[C@@H](CCCNC(=N)N)C(=O)N1CCC[C@H]1C(=O)N[C@@H](Cc1ccccc1)C(=O)N[C@@H](CCCNC(=N)N)C(=O)N[C@@H](CO)C(=O)N[C@@H](Cc1ccccc1)C(=O)N[C@H](C(=O)N1CCC[C@H]1C(=O)NCC(=O)N1CCC[C@H]1C(=O)N[C@@H](CC(C)C)C(=O)N[C@@H](CCCCN)C(=O)N[C@@H](C)C(=O)N[C@H](C(=O)N[C@@H](CC(C)C)C(=O)N[C@@H](CCCCN)C(=O)O)[C@@H](C)O)C(C)C)[C@@H](C)CC)[C@@H](C)CC)[C@@H](C)CC)[C@@H](C)CC` gave an HC50 of 34 µmol/L (human red blood cells; hemolysis).
`O=S(=O)(c1ccc(O)cc1)c1ccc(O)cc1` has a necrotic cells of 6.37 ± 1.71% (HepG2 spheroids; annexin V-FITC/PI flow cytometry; 1 µM, 24 h).
With `C=CCn1c(=O)n([C@@H]2O[C@H](CO)[C@@H](O)[C@H]2O)c2nc(N)[nH]c(=O)c21` the viability was 87.7% (HFF-1; 1 µM, 48 h).
For `O=S(=O)(O)c1nc2ccccc2s1`, the toxic ratio was 3.94 (rat hepatoma cells; cell confluency; 24 h, nominal concentration; relative to: baseline IC10 over IC10).
The CC50 of `CCN(CC)CCOc1ccc(-c2nc3cc(Cl)ccc3s2)cc1` is reported as 0.00372 mM (African green monkey cells; 5 days).
For `Nc1nc2c(ncn2[C@@H]2O[C@@H]3COP(=O)(O)O[C@H]4[C@@H](O)[C@H](n5cnc6c(N)ncnc65)O[C@@H]4COP(=O)(O)O[C@@H]2[C@@H]3O)c(=O)[nH]1`, the viability was 94.3% (HFF-1; 0.1 µg/mL).
`CC(C)C[C@H](NC(=O)CNC(=O)CNC(=O)CNC(=O)[C@H](Cc1ccc(O)cc1)NC(=O)[C@H](CC(C)C)NC(=O)[C@@H](NC(=O)CNC(=O)[C@H](Cc1ccc(O)cc1)NC(=O)[C@H](CCCCN)NC(=O)[C@H](CC(N)=O)NC(=O)[C@@H](NC(=O)[C@H](CCCCN)NC(=O)[C@H](Cc1c[nH]c2ccccc12)NC(=O)CN)[C@@H](C)O)[C@@H](C)O)C(=O)N[C@@H](CCCCN)C(=O)N[C@@H](CCCCN)C(=O)N[C@@H](CC(C)C)C(=O)N[C@@H](CC(C)C)C(=O)N[C@@H](CC(C)C)C(=O)N[C@@H](CC(C)C)C(=O)N[C@@H](CC(C)C)C(=O)N[C@@H](CCCCN)C(=O)N[C@@H](CCCCN)C(=O)N[C@@H](CC(C)C)C(=O)NCC(=O)O` — result for “lowest cytotoxic concentration”: 128 µg/mL (HEK-293T cells; CCK-8; 4 h, 37 °C, 10% cell death).
With `CC(=O)N[C@@H]1[C@@H](O[C@H](C)C(=O)N[C@@H](C)C(=O)N[C@H](CCC(=O)O)C(N)=O)[C@H](O)[C@@H](CO)O[C@H]1O` the viability was 93.5% (HFF-1; 0.1 µg/mL).
`NC(=O)c1cc(-c2ccoc2)cc(F)c1OCCc1cccc(F)c1` has a CC50 of 0.031 ± 0.0055 mM (HepG2; galactose medium; 3 (unit not given)).
With `CN(C)CCON=C1c2ccccc2CCc2ccccc21` the CC50 was 0.0776 mM (African green monkey cells; 5 days).
`CC(C)C[C@H](NC(=O)CNC(=O)[C@H](CCCCN)NC(=O)[C@H](CC(C)C)NC(=O)[C@H](CC(C)C)NC(=O)[C@H](CC(C)C)NC(=O)[C@@H](N)CCCCN)C(=O)NCC(=O)N[C@@H](CCCCN)C(=O)N[C@@H](CC(C)C)C(=O)N[C@@H](CC(C)C)C(=O)N[C@@H](CC(C)C)C(=O)N[C@@H](CCCCN)C(=O)O` — result for “lowest cytotoxic concentration”: 256 µg/mL (HEK-293T cells; CCK-8; 4 h, 37 °C, 10% cell death).
`CN(C(=O)n1cnc(-c2ccc[n+]([O-])c2)c1)C1CCCCC1` gave a concentration of 91.7 ± 3 nM (COS-7 expressing human FAAH; culture supernatant; 100 nM, 0 h).
With `c1cc2ccc3cccc4ccc(c1)c2c34` the toxic ratio was 0.3 (rat hepatoma cells; cell confluency; 24 h, nominal concentration; relative to: baseline IC10 over IC10).
With `CC(=O)N[C@@H](CCCCN)C(=O)N[C@@H](CCCCN)C(=O)N[C@@H](CC(C)C)C(=O)N[C@@H](CC(C)C)C(=O)N[C@@H](CCCCN)C(=O)N[C@@H](CC(C)C)C(=O)N[C@@H](CC(C)C)C(=O)N[C@@H](CCCCN)C(=O)N[C@@H](CCCCN)C(=O)N1CCC[C@H]1C(=O)N[C@@H](CC(C)C)C(=O)N[C@@H](CCCCN)C(=O)N[C@@H](CC(C)C)C(=O)N[C@@H](C)C(=O)N[C@@H](CCCCN)C(N)=O` the MHC10 was over 160 µM (human red blood cells; haemolysis; 6 h, 37 °C, 5% haematocrit in PBS).
With `O=C(NC1COC1)c1cc(-c2ccoc2)ccc1OCCc1cccc(F)c1` the CC50 was 0.041 ± 0.002 mM (HepG2; 3 (unit not given), human).
With `CC(=O)N[C@@H](CCCCN)C(=O)N[C@@H](CCCCN)C(=O)N[C@@H](CC(C)C)C(=O)N[C@@H](CC(C)C)C(=O)N[C@@H](C)C(=O)N[C@@H](CC(C)C)C(=O)N[C@@H](CC(C)C)C(=O)N[C@@H](CCCCN)C(=O)N[C@@H](CCCCN)C(=O)N1CCC[C@H]1C(=O)N[C@@H](CC(C)C)C(=O)N[C@@H](CCCCN)C(=O)N[C@@H](CC(C)C)C(=O)N[C@@H](CC(C)C)C(=O)N[C@@H](CCCCN)C(N)=O` the MHC10 was over 160 µM (human red blood cells; haemolysis; 6 h, 37 °C, 5% haematocrit in PBS).
For `COc1cc2c(c(OC)c1OC)-c1ccc(OC)c(=O)cc1[C@@H](NC(C)=O)CC2`, the mitotic cells was 1.65 fold (HepG2 spheroids; flow cytometry, item: phospho-histone H3; 0.1 µM, 96 h; relative to: solvent control).
For `CC(=O)c1ccc2c(c1)N(CCCN(C)C)c1ccccc1S2`, the CC50 was 0.0224 mM (African green monkey cells; 5 days).
With `O=C(O)c1ccc(C(=O)O)cc1` the AC50 was 1000 mM (MDA-kb2; cytotoxicity).
For `CC[C@H](C)[C@H](NC(=O)CN)C(=O)NCC(=O)N[C@@H](C)C(=O)N[C@H](C(=O)N[C@@H](CC(C)C)C(=O)N[C@@H](CCCCN)C(=O)N[C@H](C(=O)N[C@@H](CC(C)C)C(=O)N[C@H](C(=O)N[C@H](C(=O)NCC(=O)N[C@@H](CC(C)C)C(=O)N1CCC[C@H]1C(=O)N[C@@H](C)C(=O)N[C@@H](CC(C)C)C(=O)N[C@H](C(=O)N[C@@H](CO)C(=O)N[C@@H](Cc1c[nH]c2ccccc12)C(=O)N[C@H](C(=O)N[C@@H](CCCCN)C(=O)N[C@@H](CCCNC(=N)N)C(=O)N[C@@H](CCCCN)C(=O)N[C@@H](CCCNC(=N)N)C(=O)N[C@@H](CCC(N)=O)C(=O)N[C@@H](CCC(N)=O)C(N)=O)[C@@H](C)CC)[C@@H](C)CC)[C@@H](C)O)[C@@H](C)O)C(C)C)C(C)C`, the cell death was over 50% (RAW264.7; 4 µM).
`CC(C)C[C@H](NC(=O)CN)C(=O)N[C@@H](CCCCN)C(=O)N[C@@H](CCCCN)C(=O)N[C@@H](CC(C)C)C(=O)N[C@@H](CC(C)C)C(=O)N[C@@H](CC(C)C)C(=O)N[C@@H](CC(C)C)C(=O)N[C@@H](CC(C)C)C(=O)N[C@@H](CCCCN)C(=O)N[C@@H](CCCCN)C(=O)N[C@@H](CC(C)C)C(=O)NCC(=O)NCC(=O)NCC(=O)N[C@@H](Cc1ccc(O)cc1)C(=O)N[C@H](C(=O)N[C@@H](CC(C)C)C(=O)N[C@@H](CO)C(=O)N[C@@H](CC(=O)O)C(=O)N[C@@H](CCCNC(=N)N)C(=O)N[C@@H](CO)C(=O)N[C@@H](Cc1c[nH]cn1)C(=O)N[C@@H](CC(N)=O)C(=O)N1CCC[C@H]1C(=O)N[C@@H](Cc1ccccc1)C(=O)N[C@@H](CC(N)=O)C(=O)O)[C@@H](C)O` — result for “lowest cytotoxic concentration”: 128 µg/mL (HEK-293T cells; CCK-8; 4 h, 37 °C, 10% cell death).
For `CN1CCN(CCCN2c3ccccc3Sc3ccc(S(=O)(=O)N(C)C)cc32)CC1`, the CC50 was 0.00631 mM (African green monkey cells; 5 days).
For `CCCCCCCCCCCC(=O)N[C@H](CCC(=O)NC(CCCC(N)C(=O)O)C(=O)O)C(=O)O` (stereo partly drawn), the viability was 85% (HFF-1; 100 µg/mL).
`Cc1ccc(OCCc2cccc(F)c2)c(C(N)=O)c1` gave a selectivity ratio of under 1 (HepG2; 3 (unit not given); relative to: CC50 glucose over CC50 galactose).
`CCCSc1ccccc1N1CCN(CCCCn2c(=O)[nH]c3ccccc3c2=O)CC1` gave a CC50 of 0.00724 mM (African green monkey cells; 5 days).
`CN(CC[C@H](Oc1cccc2ccccc12)c1cccs1)N=O` has a relative survival of 85.2% (TK6 expressing CYP2C19; 0.125 µM, 4 h, without S9; relative to: vehicle).

Some of these lines once more:
`CC(C)C[C@H](NC(=O)CNC(=O)[C@H](CCCCN)NC(=O)[C@H](CC(C)C)NC(=O)[C@H](CC(C)C)NC(=O)[C@H](CC(C)C)NC(=O)[C@@H](N)CCCCN)C(=O)NCC(=O)N[C@@H](CCCCN)C(=O)N[C@@H](CC(C)C)C(=O)N[C@@H](CC(C)C)C(=O)N[C@@H](CC(C)C)C(=O)N[C@@H](CCCCN)C(=O)O` — result for “lowest cytotoxic concentration”: 256 µg/mL (HEK-293T cells; CCK-8; 4 h, 37 °C, 10% cell death).
The CC50 of `OCCN1CCN(CCCN2c3ccccc3Sc3ccc(C(F)(F)F)cc32)CC1` is reported as 0.00776 mM (African green monkey cells; 5 days).
The CC50 of `CCN(CC)CCOc1ccc(-c2nc3cc(Cl)ccc3s2)cc1` is reported as 0.00372 mM (African green monkey cells; 5 days).
